{"data": "Assay results from different studies", "organism": "Klebsiella pneumoniae", "note": "Each line is one published result; not all experiments were run side by side."}
{"Compound": "COc1ccc(/C=N/[C@@H]2CCCC[C@@H]2/N=C/c2c(O)ccc3ccc(OC)cc23)c(O)c1", "test": "bacterial growth, broth microdilution", "system": "carbapenem-resistant clinical isolate", "MIC": "> 40 µM"}
{"Compound": "CC[C@H](C)[C@H](NC(=O)[C@@H](CCCNC(=N)N)NC(=O)[C@H](CCCNC(=N)N)NC(=O)[C@H](Cc1c[nH]c2ccccc12)NC(=O)[C@H](Cc1c[nH]c2ccccc12)NC(=O)[C@H](CCCNC(=N)N)NC(=O)[C@@H]1CCCN1C(=O)[C@H](CCCNC(=N)N)NC(=O)[C@@H]1CCCN1C(=O)[C@H](CC(C)C)NC(=O)[C@H](Cc1ccc(O)cc1)NC(=O)[C@@H]1CCCN1C(=O)[C@@H]1CCCN1C(=O)[C@H](CCCCN)NC(=O)[C@H](CC(=O)O)NC(=O)[C@@H](N)C(C)C)C(=O)N[C@@H](Cc1ccc(O)cc1)C(=O)N[C@@H](CC(N)=O)C(=O)N[C@H](CCCNC(=N)N)C(N)=O", "test": "broth microdilution", "system": "DSM 681", "setting": "18 h, 37 °C, 25% MHB2", "MIC": "4 µg/mL"}
{"Compound": "COc1ccc2ccc(O)c(/C=N/[C@H]3CCCC[C@H]3/N=C/c3ccc(F)cc3O)c2c1", "test": "bacterial growth, broth microdilution", "system": "carbapenem-resistant clinical isolate", "MIC": "> 40 µM"}
{"Compound": "C#CCO/N=C(\\C(=O)N[C@@H]1C(=O)N(S(=O)(=O)O)[C@H]1C)c1csc(N)n1", "test": "agar dilution", "system": "2146 NDM-1", "MIC": "> 128 µg/mL"}
{"Compound": "CC[C@H](C)[C@H](NC(=O)[C@@H](CCCNC(=N)N)NC(=O)[C@H](CCCNC(=N)N)NC(=O)[C@H](CCC(N)=O)NC(=O)[C@H](Cc1c[nH]c2ccccc12)NC(=O)[C@H](CCCNC(=N)N)NC(=O)[C@@H]1CCCN1C(=O)[C@H](CCCNC(=N)N)NC(=O)[C@@H]1CCCN1C(=O)[C@H](CC(C)C)NC(=O)[C@H](Cc1ccc(O)cc1)NC(=O)[C@@H]1CCCN1C(=O)[C@@H]1CCCN1C(=O)[C@H](CCCCN)NC(=O)[C@H](CC(=O)O)NC(=O)[C@@H](N)C(C)C)C(=O)N[C@@H](Cc1ccc(O)cc1)C(=O)N[C@@H](CC(N)=O)C(=O)N[C@H](CCCNC(=N)N)C(N)=O", "test": "broth microdilution", "system": "DSM 681", "setting": "18 h, 37 °C, 25% MHB2", "MIC": "4 µg/mL"}
{"Compound": "N=C(N)NCCC[C@@H]1NC(=O)[C@H](CCCNC(=N)N)NC(=O)[C@@H](CCCNC(=N)N)NC(=O)[C@@H](CCCNC(=N)N)NC(=O)[C@@H](C(c2ccccc2)c2ccccc2)NC(=O)[C@@H](Cc2c[nH]c3ccccc23)NC(=O)[C@@H](C(c2ccccc2)c2ccccc2)NC1=O", "system": "1188718, multidrug-resistant", "MIC": "> 64 µg/mL"}
{"Compound": "C#CCO/N=C(\\C(=O)N[C@@H]1C(=O)N(OS(=O)(=O)O)C1(C)C)c1nsc(N)n1", "test": "agar dilution", "system": "2146, NDM-1", "MIC": "> 64 µg/mL"}
{"Compound": "CCn1c(-c2ccc(-c3ccc(OC)cc3)cc2)c(-c2ccc(-c3ccc(OC)cc3)cc2)n(CC)c1=[Se]", "test": "broth microdilution", "system": "carbapenem-resistant BAA-1705", "setting": "24 h", "MIC": "> 40 µM"}
{"Compound": "C=C1NC(=O)C2CSCC3NC(=O)C(CSC(C)C(NC(=S)C(Cc4cnc[nH]4)NC(=O)c4csc(C(C)NC(C)=O)n4)C(=O)N[C@H](CC(C)C(=O)NC(=O)CC(C(=O)O)NC(=O)C(C)NC3=O)C(=O)N2)NC(=O)[C@@H]2CCCN2C(=O)[C@@H](CC(C)C)NC1=O (stereo partly shown)", "test": "bacterial growth", "system": "ATCC 12657", "MIC": "> 32 µg/mL"}
{"Compound": "CCCCCCCC(=O)N[C@@H](CCN)C(=O)N[C@H](C(=O)N[C@@H](CCN)C(=O)N[C@H]1CCNC(=O)[C@H]([C@@H](C)O)NC(=O)[C@H](CCN)NC(=O)[C@H](CCN)NC(=O)[C@H](Cc2ccccc2)NC(=O)[C@@H](CCCCCC)NC(=O)[C@H](CCN)NC1=O)[C@@H](C)O", "test": "broth microdilution", "system": "ATCC 13883, colistin-susceptible", "MIC": "1 to 2 µg/mL"}
{"note": "Some of these lines once more:"}
{"Compound": "COc1ccc2ccc(O)c(/C=N/[C@H]3CCCC[C@H]3/N=C/c3ccc(F)cc3O)c2c1", "test": "bacterial growth, broth microdilution", "system": "carbapenem-resistant clinical isolate", "MIC": "> 40 µM"}
